Assay results of several laboratories.
Each line is one published result; not all experiments were run side by side. Several values in a cell are separate wells, animals, samples, runs or records. Numbers after ± are the reported error.
UniProt P20782, sequence (whole entry, looked up): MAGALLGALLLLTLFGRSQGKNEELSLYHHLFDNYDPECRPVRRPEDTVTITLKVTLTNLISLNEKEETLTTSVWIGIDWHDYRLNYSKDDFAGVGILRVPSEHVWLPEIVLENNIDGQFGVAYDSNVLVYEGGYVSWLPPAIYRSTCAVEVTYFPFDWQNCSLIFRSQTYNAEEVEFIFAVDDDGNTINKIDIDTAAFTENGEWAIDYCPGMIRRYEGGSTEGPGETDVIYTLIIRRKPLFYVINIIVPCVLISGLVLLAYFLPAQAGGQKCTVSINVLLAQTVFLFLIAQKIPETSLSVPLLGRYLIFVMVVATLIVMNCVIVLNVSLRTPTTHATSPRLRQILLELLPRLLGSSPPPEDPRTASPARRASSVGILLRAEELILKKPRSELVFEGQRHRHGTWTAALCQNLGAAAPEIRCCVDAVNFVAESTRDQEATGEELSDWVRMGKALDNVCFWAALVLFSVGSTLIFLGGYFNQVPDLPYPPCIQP
UniProt P30989, sequence (whole entry, looked up): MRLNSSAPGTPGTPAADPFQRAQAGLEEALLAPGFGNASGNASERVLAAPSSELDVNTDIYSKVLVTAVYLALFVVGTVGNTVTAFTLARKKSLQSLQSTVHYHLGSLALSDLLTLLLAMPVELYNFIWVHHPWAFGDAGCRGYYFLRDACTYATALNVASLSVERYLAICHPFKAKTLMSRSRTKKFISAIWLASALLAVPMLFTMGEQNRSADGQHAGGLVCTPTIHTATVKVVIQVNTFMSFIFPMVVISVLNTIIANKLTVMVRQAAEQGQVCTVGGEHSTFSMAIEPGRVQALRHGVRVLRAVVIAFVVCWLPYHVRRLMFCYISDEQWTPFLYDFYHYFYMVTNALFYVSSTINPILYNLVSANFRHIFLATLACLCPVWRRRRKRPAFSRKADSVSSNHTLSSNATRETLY
UniProt P42262, sequence (whole entry, looked up): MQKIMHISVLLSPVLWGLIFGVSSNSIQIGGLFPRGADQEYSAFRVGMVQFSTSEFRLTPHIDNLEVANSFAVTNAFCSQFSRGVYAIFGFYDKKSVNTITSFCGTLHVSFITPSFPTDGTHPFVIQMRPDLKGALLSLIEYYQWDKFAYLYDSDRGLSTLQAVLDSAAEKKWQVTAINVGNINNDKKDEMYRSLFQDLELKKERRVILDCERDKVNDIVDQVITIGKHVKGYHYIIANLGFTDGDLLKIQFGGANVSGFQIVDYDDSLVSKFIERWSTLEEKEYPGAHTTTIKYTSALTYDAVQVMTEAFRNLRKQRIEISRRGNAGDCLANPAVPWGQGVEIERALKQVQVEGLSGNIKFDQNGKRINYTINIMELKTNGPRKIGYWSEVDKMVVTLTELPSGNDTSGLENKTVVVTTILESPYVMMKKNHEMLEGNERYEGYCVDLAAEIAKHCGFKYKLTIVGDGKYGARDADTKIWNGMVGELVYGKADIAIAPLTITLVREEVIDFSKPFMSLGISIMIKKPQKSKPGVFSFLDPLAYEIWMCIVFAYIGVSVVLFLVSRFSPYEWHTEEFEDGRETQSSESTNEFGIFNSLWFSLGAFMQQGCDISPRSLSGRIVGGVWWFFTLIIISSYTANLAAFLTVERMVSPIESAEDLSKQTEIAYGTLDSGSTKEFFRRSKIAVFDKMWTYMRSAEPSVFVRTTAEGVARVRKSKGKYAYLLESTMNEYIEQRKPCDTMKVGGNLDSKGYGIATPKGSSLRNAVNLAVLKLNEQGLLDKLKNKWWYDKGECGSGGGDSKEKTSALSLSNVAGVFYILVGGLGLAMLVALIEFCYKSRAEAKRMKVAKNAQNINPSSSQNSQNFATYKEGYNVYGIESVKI
UniProt P00330, sequence (whole entry, unmodified, looked up): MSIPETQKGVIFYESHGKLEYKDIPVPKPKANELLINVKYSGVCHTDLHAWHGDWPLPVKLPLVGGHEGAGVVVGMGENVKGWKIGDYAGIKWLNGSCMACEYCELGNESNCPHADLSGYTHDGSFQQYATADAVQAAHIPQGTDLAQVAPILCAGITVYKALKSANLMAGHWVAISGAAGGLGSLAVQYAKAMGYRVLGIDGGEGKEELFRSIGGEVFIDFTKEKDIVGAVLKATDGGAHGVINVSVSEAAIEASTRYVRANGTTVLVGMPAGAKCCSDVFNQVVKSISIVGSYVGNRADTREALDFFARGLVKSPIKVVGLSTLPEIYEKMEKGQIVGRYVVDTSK
UniProt P07026, sequence (whole entry, looked up): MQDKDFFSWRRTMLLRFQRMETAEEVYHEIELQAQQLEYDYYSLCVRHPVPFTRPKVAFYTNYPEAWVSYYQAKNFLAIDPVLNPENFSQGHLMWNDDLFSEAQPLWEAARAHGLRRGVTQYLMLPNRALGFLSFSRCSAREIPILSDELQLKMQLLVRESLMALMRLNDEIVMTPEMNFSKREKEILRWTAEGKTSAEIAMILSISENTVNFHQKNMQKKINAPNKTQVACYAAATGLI
UniProt P27037, sequence (whole entry, looked up): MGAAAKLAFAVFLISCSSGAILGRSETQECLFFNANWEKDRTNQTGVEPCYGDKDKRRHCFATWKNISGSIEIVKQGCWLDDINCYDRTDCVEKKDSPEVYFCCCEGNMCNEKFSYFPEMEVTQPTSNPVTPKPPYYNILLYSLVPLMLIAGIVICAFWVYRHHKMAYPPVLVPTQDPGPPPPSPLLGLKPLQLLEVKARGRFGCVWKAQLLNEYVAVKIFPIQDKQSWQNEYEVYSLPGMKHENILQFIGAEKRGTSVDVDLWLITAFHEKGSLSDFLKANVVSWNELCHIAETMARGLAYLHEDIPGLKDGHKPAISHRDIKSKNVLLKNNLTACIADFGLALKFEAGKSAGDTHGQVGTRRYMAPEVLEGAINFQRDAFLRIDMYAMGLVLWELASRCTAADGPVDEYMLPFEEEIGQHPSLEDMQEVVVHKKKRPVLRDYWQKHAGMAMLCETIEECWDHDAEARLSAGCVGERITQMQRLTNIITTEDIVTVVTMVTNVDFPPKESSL
UniProt Q8WTQ7, sequence (whole entry, looked up): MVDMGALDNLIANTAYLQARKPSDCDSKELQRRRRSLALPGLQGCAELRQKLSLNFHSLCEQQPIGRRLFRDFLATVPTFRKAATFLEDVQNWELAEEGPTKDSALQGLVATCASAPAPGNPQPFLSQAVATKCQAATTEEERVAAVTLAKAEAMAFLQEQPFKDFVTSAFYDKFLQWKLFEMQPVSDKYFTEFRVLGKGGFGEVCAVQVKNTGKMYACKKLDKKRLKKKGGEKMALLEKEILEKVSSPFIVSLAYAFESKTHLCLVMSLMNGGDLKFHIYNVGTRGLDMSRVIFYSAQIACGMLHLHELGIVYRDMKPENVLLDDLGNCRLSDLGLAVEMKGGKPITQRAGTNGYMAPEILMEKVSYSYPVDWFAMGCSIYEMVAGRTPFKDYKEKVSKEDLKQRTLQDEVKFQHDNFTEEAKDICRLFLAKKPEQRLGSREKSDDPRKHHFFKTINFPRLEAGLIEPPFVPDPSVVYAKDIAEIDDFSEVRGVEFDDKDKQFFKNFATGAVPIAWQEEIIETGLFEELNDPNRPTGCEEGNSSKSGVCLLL
UniProt P43403, sequence (whole entry, looked up): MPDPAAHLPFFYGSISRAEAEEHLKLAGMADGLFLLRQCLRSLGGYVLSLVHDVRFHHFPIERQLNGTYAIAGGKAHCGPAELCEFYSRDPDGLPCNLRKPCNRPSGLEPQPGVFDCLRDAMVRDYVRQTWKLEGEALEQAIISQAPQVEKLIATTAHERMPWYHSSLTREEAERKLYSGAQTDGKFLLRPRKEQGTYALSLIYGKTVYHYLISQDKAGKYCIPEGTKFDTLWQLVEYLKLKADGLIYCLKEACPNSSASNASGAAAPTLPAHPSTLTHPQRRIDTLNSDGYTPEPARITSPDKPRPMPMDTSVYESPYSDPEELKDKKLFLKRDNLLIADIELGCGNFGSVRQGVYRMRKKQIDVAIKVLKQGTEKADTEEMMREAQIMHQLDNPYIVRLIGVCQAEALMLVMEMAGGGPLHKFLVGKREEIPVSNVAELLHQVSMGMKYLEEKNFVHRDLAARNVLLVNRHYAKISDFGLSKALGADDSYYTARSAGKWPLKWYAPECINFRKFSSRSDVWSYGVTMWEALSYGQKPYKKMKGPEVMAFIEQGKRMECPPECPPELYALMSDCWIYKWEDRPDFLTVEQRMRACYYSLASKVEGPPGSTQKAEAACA
UniProt Q9UGM1, sequence (whole entry, looked up): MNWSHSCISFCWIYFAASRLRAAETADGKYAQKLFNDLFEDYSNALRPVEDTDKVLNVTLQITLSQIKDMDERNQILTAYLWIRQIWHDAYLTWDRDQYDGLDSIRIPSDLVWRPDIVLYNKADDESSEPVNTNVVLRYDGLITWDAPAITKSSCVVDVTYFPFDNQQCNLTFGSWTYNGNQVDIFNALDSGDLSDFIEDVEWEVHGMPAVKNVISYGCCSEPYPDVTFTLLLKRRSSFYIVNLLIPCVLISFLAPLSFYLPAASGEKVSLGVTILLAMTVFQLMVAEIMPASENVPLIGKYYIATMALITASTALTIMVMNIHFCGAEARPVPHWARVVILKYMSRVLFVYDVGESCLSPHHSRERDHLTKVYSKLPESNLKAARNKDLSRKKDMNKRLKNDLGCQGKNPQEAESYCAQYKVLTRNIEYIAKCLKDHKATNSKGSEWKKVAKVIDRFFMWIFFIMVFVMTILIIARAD
UniProt Q9Y3R4, sequence (whole entry, looked up): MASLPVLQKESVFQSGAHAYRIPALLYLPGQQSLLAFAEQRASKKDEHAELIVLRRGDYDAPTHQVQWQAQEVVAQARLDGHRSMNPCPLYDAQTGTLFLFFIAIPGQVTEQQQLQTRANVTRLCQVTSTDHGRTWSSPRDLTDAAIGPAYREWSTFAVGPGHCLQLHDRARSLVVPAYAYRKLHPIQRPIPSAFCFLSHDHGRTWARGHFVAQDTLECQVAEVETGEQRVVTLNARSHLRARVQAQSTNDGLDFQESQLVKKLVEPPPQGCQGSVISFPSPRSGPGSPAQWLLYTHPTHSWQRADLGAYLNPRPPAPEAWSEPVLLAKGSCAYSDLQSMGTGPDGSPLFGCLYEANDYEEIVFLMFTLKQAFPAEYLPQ

| SMILES | tested on | assay | system | setting | scale | quantity | value |
| --- | --- | --- | --- | --- | --- | --- | --- |
| CC=O | ADH1 (Saccharomyces cerevisiae, UniProt P00330, H49Q) | reduction, substrate | – | pH 7.3, 30 °C | – | kcat | 3000 s⁻¹ |
| Oc1c(Br)cc(Br)cc1Oc1ccc(Br)cc1Br | SULT1E1 (Homo sapiens, UniProt P49888) | sulfonation, substrate | – | – | – | Vmax/Km | 1570 µL/min/mg |
| COc1cc2c3cc1Oc1cc(ccc1O)C[C@@H]1c4c(cc(OC)c(O)c4Oc4ccc(cc4)C[C@@H]3N(C)CC2)CC[N+]1(C)C | Chrnd/Chrna1/Chrne (Mus musculus, UniProt P02716+P04756+P20782) | – | mouse diaphragm | 0.04 µM, AChE intact | baseline: control | response amplitude | 80% |
| COc1cc(Nc2ncc(F)c(Nc3ccc4c(n3)NC(=O)C(C)(C)O4)n2)cc(OC)c1OC | MAP3K6 (Homo sapiens, UniProt O95382) | binding, KINOMEscan | – | 10 µM, ASK2 kinase | – | inhibition | 32% |
| N[C@@H](Cc1c[nH]c2ccccc12)C(=O)O | Tryptophan decarboxylase (Mediterraneibacter gnavus, UniProt A7B1V0) | substrate | – | – | – | Km | 1600 µM |
| CCc1ccccc1N1CC(c2nc3ccccc3n2CCCCOc2ccccc2OC)CC1=O (centres unmarked) | Vero-E6 | CellTiter-Glo ATP | – | 72 h, first round 5-point | baseline: DMSO 0%, hyamine -100%, more negative, more toxic | maximum response | -10.1% |
| O=C(O)COP(=O)(O)O | Triosephosphate isomerase (TPI1, Gallus gallus, UniProt P00940, G210A/S211G/Y208T) | enzyme activity, competitive inhibitor, GPDH/NADH-coupled | – | pH 7.5, 25 °C, ionic strength 0.1 NaCl, added: glyceraldehyde 3-phosphate substrate | baseline: mutant over wild type | Ki ratio | 122 |
| CC[C@@H](C)[C@@H](NC(=O)[C@@H](Cc1ccc(O)cc1)NC(=O)[C@H]1CCCN1C(=O)[C@@H](CCCNC(=N)N)NC(=O)[C@H](N)Cc1c[nH]cn1)C(=O)N[C@H](C)C(=O)N[C@H](Cc1c[nH]cn1)C(=O)N[C@H](CCCNC(=N)N)C(=O)N[C@H](CCCCNC(=O)c1cccc(S(=O)(=O)F)c1)C(=O)N[C@H](Cc1ccc(O)cc1)C(=O)N[C@H](CO)C(=O)N[C@H](Cc1ccccc1)C(N)=O | Transferrin receptor protein 1 (Tfrc, Mus musculus, UniProt Q62351) | flow cytometry | DC2.4 | 48 h, pH 6, replicate 1, unit not given | baseline: 0 h | surface TFRC expression | 0.751 |
| O=C(c1ccc(Cl)cc1)N1CCN2C(=O)N(OC(=O)N3CCOc4ccccc43)C(=O)C2C1 (centres unmarked) | Actin, aortic smooth muscle (ACTA2, Homo sapiens, UniProt P62736) | MS-based ABPP | SW-620 conditioned medium | 10 µM, 1 h, 37 °C | baseline: compound over DMSO, lower = more inhibition | peptide ratio | 1.01 and 0.89 and 1.13 and 0.96 and 0.92 |
| CN1CCN(c2cc(-c3ccncc3)c(-c3ccc4ccccc4c3)nn2)CC1 | NTSR1 (Homo sapiens, UniProt P30989) | agonist, FLIPR | – | 12.5 µM | – | activation | -0.6% |
| CN(C(=O)n1cnc(-c2ccc[n+]([O-])c2)c1)C1CCCCC1 | GRPR (Homo sapiens, UniProt P30550) | radioligand binding | – | 10 µM | – | inhibition | -3% |
| C[C@H]1CN(c2n[nH]c3nc(N[C@H]4CC[C@H](NS(=O)(=O)CCC(F)(F)F)CC4)ncc23)CCO1 | Crk-like protein (Homo sapiens, UniProt P46109) | competitor, Kinobeads competition | human cell extract | 20 µM | baseline: vehicle | relative abundance | 1.15 |
| CC1(C)C=C(CNc2ccc3c(c2)Cc2cc(Br)ccc2-3)C(C)(C)N1[O] | Amyloid-beta precursor protein, amyloid-beta (APP, Homo sapiens, UniProt P05067) | MRI, MSME | 5xFAD mice, brain | iv, 3 mg/kg, 24 h | baseline: wild-type mice | T1 relaxation time | 76% |
| O=C(Nc1cnccc1Cl)N1CCN(Cc2ccc3c(c2)OC(F)(F)O3)CC1 | ZAP70 (Homo sapiens, UniProt P43403) | kinase activity, inhibitor | – | 10 µM, human, added: poly(Glu,Tyr) | – | inhibition | -4% |
| Nc1ccncc1 | Glutamate receptor 2 (Homo sapiens, UniProt P42262) | ion current, agonist, automated patch clamp | HEK293 | 30 µM | – | activation | 3% |
| O=C(CF)NC1C(O)CC(OC2C(O)C(CO)OC(Oc3ccc([N+](=O)[O-])cc3)C2O)(C(=O)O)OC1C(O)C(O)CO (centres unmarked) | Sialidase-2 (Homo sapiens, UniProt Q9Y3R4) | substrate | – | 0.3 mM, 30 min, pH 5.0, 37 °C | – | sialic acid release | 66% |
| N[C@@H](CO)C(=O)O | trpB, with alpha subunit (Salmonella enterica, UniProt P0A2K1, Q114A) | L-Trp production | – | concentration not given, closed α-site, added: Cs+ bound at MVC site | baseline: wild type | catalytic efficiency reduction | ~2.5 fold |
| CC[C@H](CO)Nc1nc(NCc2ccccc2)c2ncn(C(C)C)c2n1 | DYRK1B (Homo sapiens, UniProt Q9Y463) | KINOMEscan competition binding | – | 10 µM, primary screen | direction not given | binding score | 7.1 |
| O=C(CCc1ccccc1)N[C@H]1CCOC1=O | Regulatory protein SdiA (sdiA, Escherichia coli, UniProt P07026) | – | – | – | – | Emax | 82.1% |
| C[N+]1(C)CCN(c2ccccc2)CC1 | CHRNA9 (Homo sapiens, UniProt Q9UGM1) | peak current, agonist, two-electrode voltage clamp | Xenopus oocytes coexpressing rapsyn | 30 µM | baseline: ACh 60 µM | response relative to ACh | < 5% |
| Cc1ccccc1CN1C(=O)c2ccccc2Sc2ccc(C(=O)NCCCN3CCOCC3)cc21 | Vero-E6 | CellTiter-Glo ATP | – | 72 h, first round 5-point | baseline: DMSO 0%, hyamine -100%, more negative, more toxic | maximum response | -9.96% |
| Nc1ncnc2c1ncn2[C@@H]1O[C@H](COP(=O)(O)OP(=O)(O)NP(=O)(O)O)[C@@H](O)[C@H]1O | Cell cycle histidine kinase CckA, cytoplasmic region (Caulobacter vibrioides, UniProt Q9X688) | ITC | – | without c-di-GMP | – | ΔH | -1.37 ± 0.0914 kcal/mol |
| O=S(=O)(O)C(F)(F)C(F)(F)C(F)(F)C(F)(F)C(F)(F)C(F)(F)C(F)(F)C(F)(F)F | FABP1 (Homo sapiens, UniProt P07148) | affinity selection mass spectrometry | – | 100 nM, added: pooled compounds | baseline: other proteins | binding fold change | 53.1 |
| [2H]c1c([2H])c([C@]2([2H])CCCN2C(=O)C(C)(C)Oc2ccc3cn[nH]c3c2)c([2H])c([2H])c1C([2H])([2H])[2H] | ACVR2A (Homo sapiens, UniProt P27037) | KINOMEscan | – | 1 µM | baseline: DMSO control | remaining binding | 86% |
| CCOC(=O)CC(SP(=O)(OC)OC)C(=O)OCC (centres unmarked) | uncharacterized protein (Anopheles coluzzii, UniProt A0A6E8VQK1) | enzyme activity, inhibitor | Sf9 cell homogenate | 0.1147 µM, 0.1667 h, added: α-naphthyl acetate substrate | baseline: no inhibitor | remaining activity | 81.3% |
| O=C(NNC(=O)c1csnn1)c1ccc(Cl)cc1 | Acetyl-CoA synthetase (Cryptococcus neoformans, UniProt J9VFT1) | – | – | 50 µM | – | remaining activity | -0.0953% |
| O=c1cc(CSc2ccc(N=Cc3ccccc3)cc2)occ1O | PPO3 (Agaricus bisporus, UniProt C7FF04) | fluorescence quenching | – | – | – | bimolecular quenching constant | 3.08e+13 M⁻¹ s⁻¹ |
| COc1ccc(N2C(=O)N(c3c(C)cccc3Cl)Cc3cnc(Nc4ccc(C5CCN(C)CC5)cc4OC)nc32)nc1 | GRK7 (Homo sapiens, UniProt Q8WTQ7) | kinase activity | – | 0.5 µM | – | inhibition | 5% |
| COc1cc(N)c(Cl)cc1C(=O)NC1CN2CCC1CC2 (centres unmarked) | G-protein coupled receptor 146 (GPR146, Homo sapiens, UniProt Q96CH1) | β-arrestin recruitment, TANGO luminescence, measured: GPR146 | – | concentration not given | baseline: basal luminescence | log2 fold change | 1.14 |

Some of these lines once more:
| SMILES | tested on | assay | system | setting | scale | quantity | value |
| --- | --- | --- | --- | --- | --- | --- | --- |
| CCOC(=O)CC(SP(=O)(OC)OC)C(=O)OCC (centres unmarked) | uncharacterized protein (Anopheles coluzzii, UniProt A0A6E8VQK1) | enzyme activity, inhibitor | Sf9 cell homogenate | 0.1147 µM, 0.1667 h, added: α-naphthyl acetate substrate | baseline: no inhibitor | remaining activity | 81.3% |
| CC[C@H](CO)Nc1nc(NCc2ccccc2)c2ncn(C(C)C)c2n1 | DYRK1B (Homo sapiens, UniProt Q9Y463) | KINOMEscan competition binding | – | 10 µM, primary screen | direction not given | binding score | 7.1 |
